{"data": "Results gathered from unrelated publications", "note": "Lines come from different studies, so protocols differ. ± marks the error that the study gave.", "UniProt P08069, sequence (whole entry, looked up)": "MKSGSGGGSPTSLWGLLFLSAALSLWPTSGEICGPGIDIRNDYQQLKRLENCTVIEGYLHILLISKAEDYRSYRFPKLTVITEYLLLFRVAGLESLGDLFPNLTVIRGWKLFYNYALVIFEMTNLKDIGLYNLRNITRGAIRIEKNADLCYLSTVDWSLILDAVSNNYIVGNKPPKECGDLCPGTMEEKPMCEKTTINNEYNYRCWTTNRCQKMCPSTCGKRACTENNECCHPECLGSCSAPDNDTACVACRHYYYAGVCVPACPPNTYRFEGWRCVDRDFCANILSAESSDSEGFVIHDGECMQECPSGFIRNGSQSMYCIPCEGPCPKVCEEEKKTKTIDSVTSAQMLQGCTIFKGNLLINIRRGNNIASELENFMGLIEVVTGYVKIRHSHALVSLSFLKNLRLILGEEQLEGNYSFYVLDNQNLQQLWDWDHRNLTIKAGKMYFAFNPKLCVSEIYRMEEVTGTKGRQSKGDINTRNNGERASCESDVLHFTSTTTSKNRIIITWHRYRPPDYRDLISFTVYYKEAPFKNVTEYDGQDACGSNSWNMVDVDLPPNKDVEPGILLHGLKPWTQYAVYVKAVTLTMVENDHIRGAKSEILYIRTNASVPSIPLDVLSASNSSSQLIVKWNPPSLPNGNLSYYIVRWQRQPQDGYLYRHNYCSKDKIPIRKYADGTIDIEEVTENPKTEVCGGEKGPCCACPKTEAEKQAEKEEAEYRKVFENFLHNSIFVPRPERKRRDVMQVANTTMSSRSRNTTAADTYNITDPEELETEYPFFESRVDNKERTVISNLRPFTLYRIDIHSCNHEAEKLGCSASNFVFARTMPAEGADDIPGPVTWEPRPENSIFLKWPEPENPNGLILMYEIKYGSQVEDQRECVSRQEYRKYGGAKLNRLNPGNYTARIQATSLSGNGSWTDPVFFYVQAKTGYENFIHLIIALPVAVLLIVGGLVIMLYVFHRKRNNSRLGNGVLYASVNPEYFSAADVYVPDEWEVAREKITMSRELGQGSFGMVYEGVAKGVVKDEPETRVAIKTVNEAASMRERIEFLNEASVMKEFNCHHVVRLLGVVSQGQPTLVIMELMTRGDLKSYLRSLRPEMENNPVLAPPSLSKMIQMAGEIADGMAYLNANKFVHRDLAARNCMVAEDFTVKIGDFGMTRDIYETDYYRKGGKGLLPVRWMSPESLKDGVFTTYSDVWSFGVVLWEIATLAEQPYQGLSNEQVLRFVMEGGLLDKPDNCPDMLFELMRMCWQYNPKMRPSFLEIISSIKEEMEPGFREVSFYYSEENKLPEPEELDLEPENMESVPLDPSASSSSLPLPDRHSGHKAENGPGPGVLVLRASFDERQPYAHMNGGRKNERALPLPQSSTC"}
{"SMILES": "Cc1cccc(Cn2nc(C3CC3)c3c(NC(=O)c4cnc5cc(OCCN6CCN(C)CC6)ccn45)cccc32)n1", "assay": "measured: Pruritus", "test system": "human advanced solid tumours", "setting": "oral, dose not given, all-causality,, all doses", "quantity": "adverse events incidence", "value": "21.1%"}
{"SMILES": "COC[C@@]12CC[C@H](OC)[C@]34C(C([C@H](OC)[C@H]13)[C@]1(OC(C)=O)[C@H]3[C@@H](OC(=O)c5ccccc5)[C@](O)(C[C@H]34)[C@@H](OC)[C@@H]1O)N(C)C2", "test system": "Sprague-Dawley rat, plasma", "setting": "oral, dose not given, in PCW extract", "quantity": "MRT(0-t)", "value": "3.62 ± 1.04 h"}
{"SMILES": "C[C@]1(O)C[C@@](N)(c2ccc(-c3nc4n(c3-c3ccccc3)COc3ccncc3-4)cc2)C1", "test system": "human, advanced or metastatic solid tumours", "setting": "dose not given, once-daily dose escalation total", "quantity": "patients with AST increased TEAE", "value": "22.2%"}
{"SMILES": "[O-][S+]1CCc2nc(N3CCC(c4ncc(Cl)cn4)CC3)nc(NC3(CO)CCC3)c21 (stereo not drawn)", "assay": "phase I trial, measured: oral hypoaesthesia", "test system": "healthy male volunteers", "setting": "dose not given, multiple rising dose, all cohorts", "quantity": "subjects with adverse events", "value": "6.3%"}
{"SMILES": "COc1cccc2c1CCCC2CCCN1CCN(C2CCCCC2)CC1 (stereo not drawn)", "test system": "CD-1 mouse, male, plasma", "setting": "intraperitoneal, 30 mg/kg", "quantity": "half-life", "value": "3.18 h"}
{"SMILES": "CO[C@H]1C[C@@H]2CC[C@@H](C)[C@@](O)(O2)C(=O)C(=O)N2CCCC[C@H]2C(=O)O[C@H]([C@H](C)C[C@@H]2CC[C@@H](OC(=O)NCCOCCOCCOCCOCCOCCOCCOCCOCCC(=O)N3CCc4cc(Cn5nc(-c6ccc7oc(N)nc7c6)c6c(N)ncnc65)ccc4C3)[C@H](OC)C2)C[C@@H](O)[C@H](C)/C=C(\\C)[C@@H](O)[C@@H](OC)C(=O)[C@H](C)C[C@H](C)/C=C/C=C/C=C/1C", "test system": "patients with advanced solid tumours", "setting": "intravenous, 10 mg weekly, any grade", "quantity": "abdominal pain incidence", "value": "25%"}
{"SMILES": "CC[C@H](C)CCCCC(=O)N[C@@H](CCN)C(=O)N[C@H](C(=O)N[C@@H](CCN)C(=O)N[C@H]1CCNC(=O)[C@H]([C@@H](C)O)NC(=O)[C@H](CCN)NC(=O)[C@H](CCN)NC(=O)[C@H](CC(C)C)NC(=O)[C@@H](Cc2ccccc2)NC(=O)[C@H](CCN)NC1=O)[C@@H](C)O", "test system": "human, critically ill, no AKI, plasma", "setting": "intravenous, dose not given, mean", "quantity": "clearance", "value": "1.45 L/h"}
{"SMILES": "CC[C@H](C)[C@H](NC(=O)[C@H](Cc1ccccc1)NC(=O)[C@H](CCC(=O)O)NC(=O)[C@H](CCCNC(=N)N)NC(=O)[C@H](C)NC(=O)[C@H](C)NC(=O)[C@H](CCC(N)=O)NC(=O)[C@H](CCC(=O)O)NC(=O)[C@H](CCC(=O)O)NC(=O)[C@H](CC(C)C)NC(=O)[C@H](Cc1ccc(O)cc1)NC(=O)[C@H](CO)NC(=O)[C@H](CO)NC(=O)[C@@H](NC(=O)[C@H](CC(=O)O)NC(=O)[C@H](CO)NC(=O)[C@@H](NC(=O)[C@H](Cc1ccccc1)NC(=O)[C@@H](NC(=O)CNC(=O)[C@H](CCC(=O)O)NC(=O)[C@H](C)NC(=O)CCc1cnc[nH]1)[C@@H](C)O)[C@@H](C)O)C(C)C)C(=O)N[C@@H](C)C(=O)N[C@@H](Cc1c[nH]c2ccccc12)C(=O)N[C@@H](CC(C)C)C(=O)N[C@H](C(=O)N[C@@H](CCCNC(=N)N)C(=O)NCC(=O)N[C@@H](CCCNC(=N)N)C(=O)N[C@@H](CCCCNC(=O)COCCOCCNC(=O)COCCOCCNC(=O)CC[C@H](NC(=O)CCCCCCCCCCCCCCCCC(=O)O)C(=O)O)C(=O)NCC(=O)NCC(=O)N[C@@H](CO)C(=O)N[C@@H](CCSC)C(=O)N[C@H](C(=O)N[C@@H](CCCCNc1c(NCCCCCN(O)C(=O)CCC(=O)NCCCCCN(O)C(=O)CCC(=O)NCCCCCN(O)C(C)=O)c(=O)c1=O)C(=O)O)C(C)C)C(C)C [zirconium-89 labelled]", "assay": "ex vivo gamma counting", "test system": "male Sprague-Dawley rats, spleen", "setting": "intravenous, 1 nmol, 24 h, mean of 3 animals", "quantity": "tissue uptake", "value": "0.33 %ID/g"}
{"SMILES": "COc1cc2c(Oc3ccc4[nH]c(C)cc4c3F)ccnc2cc1OCC1(N)CC1", "test system": "paediatric recurrent refractory sarcoma", "setting": "10 mg", "quantity": "grade 3 Fever", "value": "0%"}
{"SMILES": "C[C@@H]1OC(=O)NN=C1c1ccc(-c2ccc(F)cc2)c(C(F)(F)F)c1", "assay": "phase I trial, measured: Presyncope all grades", "test system": "human patients", "setting": "10 mg loading then 0.5 mg daily", "quantity": "patients with adverse event", "value": "100%"}
{"SMILES": "CC(C)[C@H](N)C(=O)NCCCS(=O)(=O)O", "test system": "human", "setting": "oral, 265 mg twice daily, 5 h post-dose, steady state, week 65", "quantity": "plasma concentration", "value": "297 ng/mL"}
{"SMILES": "CC1(C)[C@H](C(=O)O[C@H](C#N)c2cccc(Oc3ccccc3)c2)[C@@H]1C=C(Br)Br", "assay": "measured: CYP2C19", "test system": "human, age 5 years, recombinant human CYP2C19", "setting": "0.1 µM", "quantity": "enzyme contribution to clearance", "value": "0.54%"}
{"SMILES": "COc1ccc(C[C@@H]2NC(=O)[C@H]([C@@H](C)O)NC(=O)[C@@H]3[C@@H]4CCN3C(=O)[C@@H]3Cc5cn(c6ccc(F)cc56)CCCCCCN(Cc5ccc(cc5)CCNC(=O)[C@]5(C)CCCN5C2=O)C(=O)CCC(=O)N[C@@H](C)C(=O)N[C@H](CNC(=O)CCCCC[N+](C)(C)C)C(=O)N[C@@H](Cc2cccc(c2)CNC(=O)CO4)C(=O)N3)cc1", "assay": "measured: maculo-papular rash", "test system": "human", "setting": "dose not given", "quantity": "participants with adverse event", "value": "2%"}
{"SMILES": "O[C@H]1CCCN[C@@H]1CCCn1cnc2c(Cl)c(Cl)ccc21", "test system": "healthy humans, plasma", "setting": "oral, 150 mg, together with: nintedanib 150 mg", "quantity": "AUCtau geometric LS mean", "value": "1140 ng·h/mL"}
{"SMILES": "C[C@H]1CN(c2n[nH]c3nc(N[C@H]4CC[C@H](NS(=O)(=O)CCC(F)(F)F)CC4)ncc23)CCO1", "target or system": "Insulin-like growth factor 1 receptor (IGF1R, Homo sapiens, UniProt P08069)", "assay": "inhibitor, Kinobeads competition profiling", "setting": "0.032 µM", "how to read": "relative to: vehicle", "quantity": "relative abundance", "value": 0.97}
